Results collected from several papers.
Lines come from different studies, so protocols differ. ± gives the spread as reported. Converted amounts (≈) assume the structure as drawn.

NC1=NC2(CCCCC2)N(c2ccc(OCc3cn(CCCCOc4ccc(CCC(=O)O)c(O)c4)nn3)cc2)C(N)=N1  MIC50 (Mycobacterium bovis; BCG Tac^r7.2, thyA W133S missense; TA-C-resistant thyA mutant): > 25 µM
O=c1c2ccccc2[nH]c(=S)n1Cc1cccnc1  IC80 (Mycobacterium tuberculosis; intracellular growth; THP-1 macrophages, H37Rv-GFP): > 30 µM
Nc1n[nH]c(=O)[nH]1  decrease in bioluminescence (Aliivibrio fischeri; Microtox; 98 mM, 30 min): 71%
CC[C@H](C)[C@H](NC(=O)[C@H](C)NC(=O)[C@H](CCC(=O)O)NC(=O)[C@H](CCC(=O)O)NC(=O)[C@H](CC(C)C)NC(=O)[C@H](CCCCN)NC(=O)[C@H](CCCCN)NC(=O)[C@H](CCSC)NC(=O)[C@H](CCC(=O)O)NC(=O)[C@H](Cc1ccc(O)cc1)NC(=O)[C@H](CCC(=O)O)NC(=O)[C@H](CC(C)C)NC(=O)[C@H](CC(=O)O)NC(=O)[C@H](CC(C)C)NC(=O)[C@H](Cc1ccccc1)NC(=O)[C@H](Cc1ccccc1)NC(=O)[C@@H](NC(=O)[C@H](CC(N)=O)NC(=O)[C@@H](NC(=O)[C@H](CCC(N)=O)NC(=O)[C@H](CC(=O)O)NC(=O)[C@H](CC(C)C)NC(=O)[C@@H](N)CO)[C@@H](C)CC)C(C)C)C(=O)N[C@@H](CCCCN)C(=O)N[C@@H](CCCCN)C(=O)N[C@@H](CC(C)C)C(=O)N[C@@H](CCC(=O)O)C(=O)N[C@@H](CCC(=O)O)C(=O)N[C@@H](CO)C(=O)N[C@@H](Cc1ccc(O)cc1)C(=O)N[C@H](C(=O)N[C@@H](CC(=O)O)C(=O)N[C@@H](CC(C)C)C(=O)N[C@@H](CCCCN)C(=O)N[C@@H](CCC(=O)O)C(=O)N[C@@H](CC(C)C)C(=O)O)[C@@H](C)CC  IC50 (HCoV-OC43; viral infection, inhibitor, immunostaining; HCT-8; 2 days): 0.147 µM
Cc1ccc(S(=O)(=O)Nc2cccc(C(=O)NC3CCN(c4ncnc5[nH]cnc45)CC3)c2)cc1Cl  viability (A549-ACE2; 200 µM): 60.9%
Cc1cc(=O)oc2cc(OCCCCn3cc(COc4ccc(N5C(N)=NC(N)=NC56CCCCC6)cc4)nn3)ccc12  MIC50 (Mycobacterium bovis; BCG Tac^r2.3, fbiA L109P missense; TA-C-resistant F420 mutant): 3.2 µM (≈ 1.87 µg/mL)
Nc1nc(N)c2c(Cl)c(CNc3ccc(C(=O)O)cc3)ccc2n1  MIC (Mycobacterium tuberculosis; extracellular growth; H37Rv): ~0.05 µM (≈ 0.0172 µg/mL)
NC1=NC2(CCCCC2)N(c2ccc(OCc3cn(CCCCOc4ccc5ccc(=O)oc5c4)nn3)cc2)C(N)=N1  MIC50 (Mycobacterium bovis BCG; resistant, thyA A148E): 3.2 µM (≈ 1.83 µg/mL)
O=C(O)C(=O)CC(=O)C1(Cc2ccc(Cl)cc2)CCN(Cc2ccccc2)CC1  concentration suppressing replication (Heartland virus; viral replication): > 50 µM
CC[C@H](C)[C@H](NC(=O)[C@H](C)NC(=O)[C@H](CCC(=O)O)NC(=O)[C@H](CCC(=O)O)NC(=O)[C@H](CC(C)C)NC(=O)[C@H](CCCCN)NC(=O)[C@H](CCCCN)NC(=O)[C@H](CCSC)NC(=O)[C@H](CCC(=O)O)NC(=O)[C@H](Cc1ccc(O)cc1)NC(=O)[C@H](CCC(=O)O)NC(=O)[C@H](CC(C)C)NC(=O)[C@H](CC(=O)O)NC(=O)[C@H](CC(C)C)NC(=O)[C@H](Cc1ccccc1)NC(=O)[C@@H](NC(=O)[C@@H](NC(=O)[C@H](CC(N)=O)NC(=O)[C@@H](NC(=O)[C@H](CCC(N)=O)NC(=O)[C@H](CC(=O)O)NC(=O)[C@H](CC(C)C)NC(=O)[C@@H](N)CO)[C@@H](C)CC)C(C)C)[C@@H](C)O)C(=O)N[C@@H](CCCCN)C(=O)N[C@@H](CCCCN)C(=O)N[C@@H](CC(C)C)C(=O)N[C@@H](CCC(=O)O)C(=O)N[C@@H](CCC(=O)O)C(=O)N[C@@H](CO)C(=O)N[C@@H](Cc1ccc(O)cc1)C(=O)N[C@H](C(=O)N[C@@H](CC(=O)O)C(=O)N[C@@H](CC(C)C)C(=O)N[C@@H](CCCCN)C(=O)N[C@@H](CCC(=O)O)C(=O)N[C@@H](CC(C)C)C(=O)O)[C@@H](C)CC  IC50 (HCoV-OC43; viral infection, inhibitor, immunostaining; HCT-8; 2 days, dual mutations): 0.519 µM
CC(=O)Oc1ccc2nc3ccc(=O)cc-3oc2c1  MIC90 (Mycobacterium tuberculosis; mc2 6206 clofazimine-resistant fbiC mutant; 7 days): > 256 µM
CC[C@H](C)[C@H](NC(=O)[C@H](C)NC(=O)[C@H](CCC(=O)O)NC(=O)[C@H](CCC(=O)O)NC(=O)[C@H](CC(C)C)NC(=O)[C@H](CCCCN)NC(=O)[C@H](CCCCN)NC(=O)[C@H](CCSC)NC(=O)[C@H](CCC(=O)O)NC(=O)[C@H](Cc1ccc(O)cc1)NC(=O)[C@H](CCC(=O)O)NC(=O)[C@H](CC(C)C)NC(=O)[C@H](CC(=O)O)NC(=O)[C@H](CC(C)C)NC(=O)[C@H](Cc1ccccc1)NC(=O)[C@@H](NC(=O)[C@@H](NC(=O)[C@H](CC(N)=O)NC(=O)[C@@H](NC(=O)[C@H](CCC(N)=O)NC(=O)[C@H](CC(=O)O)NC(=O)[C@H](CC(C)C)NC(=O)[C@@H](N)CO)[C@@H](C)CC)C(C)C)[C@@H](C)O)C(=O)N[C@@H](CCCCN)C(=O)N[C@@H](CCCCN)C(=O)N[C@@H](CC(C)C)C(=O)N[C@@H](CCC(=O)O)C(=O)N[C@@H](CCC(=O)O)C(=O)N[C@H](C(=O)N[C@@H](Cc1ccc(O)cc1)C(=O)N[C@H](C(=O)N[C@@H](CC(=O)O)C(=O)N[C@@H](CC(C)C)C(=O)N[C@@H](CCCCN)C(=O)N[C@@H](CCC(=O)O)C(=O)N[C@@H](CC(C)C)C(=O)O)[C@@H](C)CC)[C@@H](C)O  IC50 (HCoV-OC43; viral infection, inhibitor, immunostaining; HCT-8; 2 days): 1.31 µM
COc1ccc(-c2ccc(C(C)n3ccnc3)cc2)cc1 (centres unmarked)  Kd to MIC50 ratio (Mycobacterium bovis; BCG DSM 43990): 2 to 3
CC[C@H](C)[C@H](NC(=O)[C@H](C)NC(=O)[C@H](CCC(=O)O)NC(=O)[C@H](CCC(=O)O)NC(=O)[C@H](CC(C)C)NC(=O)[C@H](CCCCN)NC(=O)[C@H](CCCCN)NC(=O)[C@H](CCSC)NC(=O)[C@H](CCC(=O)O)NC(=O)[C@H](Cc1ccc(O)cc1)NC(=O)[C@H](CCC(=O)O)NC(=O)[C@H](CC(C)C)NC(=O)[C@H](CC(=O)O)NC(=O)[C@H](CC(C)C)NC(=O)[C@H](Cc1ccccc1)NC(=O)[C@H](Cc1ccccc1)NC(=O)[C@@H](NC(=O)[C@H](CC(N)=O)NC(=O)[C@@H](NC(=O)[C@H](CCC(N)=O)NC(=O)[C@H](CC(=O)O)NC(=O)[C@H](CC(C)C)NC(=O)[C@@H](N)CO)[C@@H](C)CC)C(C)C)C(=O)N[C@@H](CCCCN)C(=O)N[C@@H](CCCCN)C(=O)N[C@@H](CC(C)C)C(=O)N[C@@H](CCC(=O)O)C(=O)N[C@@H](CCC(=O)O)C(=O)N[C@H](C(=O)N[C@@H](Cc1ccc(O)cc1)C(=O)N[C@H](C(=O)N[C@@H](CC(=O)O)C(=O)N[C@@H](CC(C)C)C(=O)N[C@@H](CCCCN)C(=O)N[C@@H](CCC(=O)O)C(=O)N[C@@H](CC(C)C)C(=O)O)[C@@H](C)CC)[C@@H](C)O  IC50 (HCoV-OC43; viral infection, inhibitor, immunostaining; HCT-8; 2 days, dual mutations): 0.362 µM
O=C1C(Cl)=C(Cl)C(=O)c2ccccc21  EC50 (porcine epidemic diarrhea virus; viral replication; Vero; 16 h): 38.5 µM
CC[C@H](C)[C@H](NC(=O)[C@H](C)NC(=O)[C@H](CCC(=O)O)NC(=O)[C@H](CCC(=O)O)NC(=O)[C@H](CC(C)C)NC(=O)[C@H](CCCCN)NC(=O)[C@H](CCCCN)NC(=O)[C@H](CCSC)NC(=O)[C@H](CCC(=O)O)NC(=O)[C@H](Cc1ccc(O)cc1)NC(=O)[C@H](CCC(=O)O)NC(=O)[C@H](CC(C)C)NC(=O)[C@H](CC(=O)O)NC(=O)[C@H](CC(C)C)NC(=O)[C@H](Cc1ccccc1)NC(=O)[C@H](Cc1ccc(O)cc1)NC(=O)[C@@H](NC(=O)[C@H](CC(N)=O)NC(=O)[C@@H](NC(=O)[C@H](CCC(N)=O)NC(=O)[C@H](CC(=O)O)NC(=O)[C@H](CC(C)C)NC(=O)[C@@H](N)CO)[C@@H](C)CC)C(C)C)C(=O)N[C@@H](CCCCN)C(=O)N[C@@H](CCCCN)C(=O)N[C@@H](CC(C)C)C(=O)N[C@@H](CCC(=O)O)C(=O)N[C@@H](CCC(=O)O)C(=O)N[C@@H](CO)C(=O)N[C@@H](Cc1ccc(O)cc1)C(=O)N[C@H](C(=O)N[C@@H](CC(=O)O)C(=O)N[C@@H](CC(C)C)C(=O)N[C@@H](CCCCN)C(=O)N[C@@H](CCC(=O)O)C(=O)N[C@@H](CC(C)C)C(=O)O)[C@@H](C)CC  IC50 (HCoV-OC43; viral infection, inhibitor, immunostaining; HCT-8; 2 days): 0.312 µM
O=C(CCN(CCC(=O)N[C@@H](Cc1c[nH]c2ccccc12)C(=O)O)C(=O)CCN(CCC(=O)N(CCC(=O)N[C@@H](Cc1c[nH]c2ccccc12)C(=O)O)CCC(=O)N[C@@H](Cc1c[nH]c2ccccc12)C(=O)O)C(=O)CCOCC(COCCC(=O)N(CCC(=O)N(CCC(=O)N[C@@H](Cc1c[nH]c2ccccc12)C(=O)O)CCC(=O)N[C@@H](Cc1c[nH]c2ccccc12)C(=O)O)CCC(=O)N(CCC(=O)N[C@@H](Cc1c[nH]c2ccccc12)C(=O)O)CCC(=O)N[C@@H](Cc1c[nH]c2ccccc12)C(=O)O)(COCCC(=O)N(CCC(=O)N(CCC(=O)N[C@@H](Cc1c[nH]c2ccccc12)C(=O)O)CCC(=O)N[C@@H](Cc1c[nH]c2ccccc12)C(=O)O)CCC(=O)N(CCC(=O)N[C@@H](Cc1c[nH]c2ccccc12)C(=O)O)CCC(=O)N[C@@H](Cc1c[nH]c2ccccc12)C(=O)O)COCCC(=O)N(CCC(=O)N(CCC(=O)N[C@@H](Cc1c[nH]c2ccccc12)C(=O)O)CCC(=O)N[C@@H](Cc1c[nH]c2ccccc12)C(=O)O)CCC(=O)N(CCC(=O)N[C@@H](Cc1c[nH]c2ccccc12)C(=O)O)CCC(=O)N[C@@H](Cc1c[nH]c2ccccc12)C(=O)O)N[C@@H](Cc1c[nH]c2ccccc12)C(=O)O  EC50 (human coronavirus 229E; viral replication): 45 ± 0.05 µM

Repeated from above:
O=C1C(Cl)=C(Cl)C(=O)c2ccccc21  EC50 (porcine epidemic diarrhea virus; viral replication; Vero; 16 h): 38.5 µM
CC[C@H](C)[C@H](NC(=O)[C@H](C)NC(=O)[C@H](CCC(=O)O)NC(=O)[C@H](CCC(=O)O)NC(=O)[C@H](CC(C)C)NC(=O)[C@H](CCCCN)NC(=O)[C@H](CCCCN)NC(=O)[C@H](CCSC)NC(=O)[C@H](CCC(=O)O)NC(=O)[C@H](Cc1ccc(O)cc1)NC(=O)[C@H](CCC(=O)O)NC(=O)[C@H](CC(C)C)NC(=O)[C@H](CC(=O)O)NC(=O)[C@H](CC(C)C)NC(=O)[C@H](Cc1ccccc1)NC(=O)[C@H](Cc1ccc(O)cc1)NC(=O)[C@@H](NC(=O)[C@H](CC(N)=O)NC(=O)[C@@H](NC(=O)[C@H](CCC(N)=O)NC(=O)[C@H](CC(=O)O)NC(=O)[C@H](CC(C)C)NC(=O)[C@@H](N)CO)[C@@H](C)CC)C(C)C)C(=O)N[C@@H](CCCCN)C(=O)N[C@@H](CCCCN)C(=O)N[C@@H](CC(C)C)C(=O)N[C@@H](CCC(=O)O)C(=O)N[C@@H](CCC(=O)O)C(=O)N[C@@H](CO)C(=O)N[C@@H](Cc1ccc(O)cc1)C(=O)N[C@H](C(=O)N[C@@H](CC(=O)O)C(=O)N[C@@H](CC(C)C)C(=O)N[C@@H](CCCCN)C(=O)N[C@@H](CCC(=O)O)C(=O)N[C@@H](CC(C)C)C(=O)O)[C@@H](C)CC  IC50 (HCoV-OC43; viral infection, inhibitor, immunostaining; HCT-8; 2 days): 0.312 µM
O=C(CCN(CCC(=O)N[C@@H](Cc1c[nH]c2ccccc12)C(=O)O)C(=O)CCN(CCC(=O)N(CCC(=O)N[C@@H](Cc1c[nH]c2ccccc12)C(=O)O)CCC(=O)N[C@@H](Cc1c[nH]c2ccccc12)C(=O)O)C(=O)CCOCC(COCCC(=O)N(CCC(=O)N(CCC(=O)N[C@@H](Cc1c[nH]c2ccccc12)C(=O)O)CCC(=O)N[C@@H](Cc1c[nH]c2ccccc12)C(=O)O)CCC(=O)N(CCC(=O)N[C@@H](Cc1c[nH]c2ccccc12)C(=O)O)CCC(=O)N[C@@H](Cc1c[nH]c2ccccc12)C(=O)O)(COCCC(=O)N(CCC(=O)N(CCC(=O)N[C@@H](Cc1c[nH]c2ccccc12)C(=O)O)CCC(=O)N[C@@H](Cc1c[nH]c2ccccc12)C(=O)O)CCC(=O)N(CCC(=O)N[C@@H](Cc1c[nH]c2ccccc12)C(=O)O)CCC(=O)N[C@@H](Cc1c[nH]c2ccccc12)C(=O)O)COCCC(=O)N(CCC(=O)N(CCC(=O)N[C@@H](Cc1c[nH]c2ccccc12)C(=O)O)CCC(=O)N[C@@H](Cc1c[nH]c2ccccc12)C(=O)O)CCC(=O)N(CCC(=O)N[C@@H](Cc1c[nH]c2ccccc12)C(=O)O)CCC(=O)N[C@@H](Cc1c[nH]c2ccccc12)C(=O)O)N[C@@H](Cc1c[nH]c2ccccc12)C(=O)O  EC50 (human coronavirus 229E; viral replication): 45 ± 0.05 µM
